Experimental data from different studies.
Each numbered part is a random draw from the data of one study; scales do not carry over between parts. Substitutions count along the parent as printed.

Sample 1 — method: protein binding microarray; form: double-stranded DNA, one strand shown; medium: in vitro; tested at: not given; relative to: not given; direction: higher = stronger binding
Target: Histone acetyltransferase KAT6A, both winged helices, GST fusion (KAT6A, Homo sapiens, UniProt Q92794, residues 1-181)
Setting: 8-mer, flanks averaged, mean of 2 arrays, mostly near background
Target sequence (chain): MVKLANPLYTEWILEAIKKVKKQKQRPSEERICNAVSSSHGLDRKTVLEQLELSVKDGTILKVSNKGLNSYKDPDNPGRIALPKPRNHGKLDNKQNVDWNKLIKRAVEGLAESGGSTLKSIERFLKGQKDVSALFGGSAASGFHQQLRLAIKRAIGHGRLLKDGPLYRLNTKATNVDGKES
| Strand | E-score |
| --- | --- |
| GCGATATA | 0.0675 |
| CGACGTCA | 0.135 |
| ACACTGCT | -0.236 |
| CCAGGTGC | -0.205 |
| CTTATGCC | -0.0452 |
| CGAGTACC | 0.0946 |
| AGGTCAAA | -0.11 |
| CCAACCCA | -0.264 |
| CAGGTCGA | -0.22 |
| CGGATCCA | 0.00293 |
| AGGGGTAC | -0.117 |
| ATCAGTTA | 0.0542 |
| ACATTCGA | -0.0224 |
| AAATTCGC | -0.0407 |
| AATAAGGA | -0.259 |
| CTCCCGTA | 0.205 |
| CCGCCATA | 0.17 |

Sample 2 — method: RNA Bind-n-Seq; form: RNA; medium: in vitro; tested at: 365 nM; relative to: no-protein control; direction: higher = stronger binding
Target: RNA binding protein fox-1 homolog 2, RRM domain, GST-SBP tag (RBFOX2, Homo sapiens, UniProt O43251-10, residues 100-194)
Setting: natural RNA segment, single round, ends assumed
All sequences stand within: GGGAGUUCUACAGUCCGACGAUC … UGGAAUUCUCGGGUGCCAA
Residues (chain): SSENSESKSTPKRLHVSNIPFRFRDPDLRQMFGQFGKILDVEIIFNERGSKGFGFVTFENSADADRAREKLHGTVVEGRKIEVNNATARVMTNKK
| Strand | RBNS enrichment (R) |
| --- | --- |
| ACUAUAUAUAUUUCUAGAAGGGGCUAUGCAUAUUCAAUGUAUUGAGAACCAAAGCAACCACAAAUGCAUAAAUGCAUAAUUUAUGGUCUUCAACCAAGGCCACAUAAUAA | 0.567 |
| CACCUCACACCAAGAAUCUUGCCUAACCCUGUCAGAGUGCCUAAUAUCCUGUGGUGAUUAUGUAUAAUGAAACAGUCUUAUUUUGUGCUCUUUGGUUUCUUAAAAGGAAA | 0.337 |
| CGCUGAUGCCAGACCUUCUCCCGCUGCCAGGAAGCUGUUGUCGACUCCAGACCUGGUUGAGGGAGUAUAGAUUGGGUCUAGCUUGCUUCAGUGUACAGAAACCUCCUCUG | 0.575 |
| CACAGAGGAUACCUUUGUCCACGAAGCCCACUUAACUCACAGCCUUCCUCCUGCCUCAGUCUCCCAAGUGCUACAAUGACGGGCCUUUGCCACUAUGCUUGGCUGGCCUU | 0.477 |
| AACGCGCCUGAAACACCCCGCGGGCCUCCCGUUGUCAUGCCUUACGGUUUCCAAUGCGCCGUCACCAUCUCCACCUGCCACCAAACCACCAGCAGAGUAGCCGCCGCUGC | 0.784 |
| ACUUGUAUUGACCAAAGUUUUGCAGCUCUACUAUAUUCUGUGCUCAGGACUAAAAUGCUGUUAAUUUUUUUUUUUUUUUCCAGUGCUGUGCAUAUAUUCUGUGAUGGGAA | 0.812 |
| UCAGCAUGUUUCUCUCCUUGGACCUUGGGUUUCCAACUCUGCAGCCUUCAGGUCUGGGGCCAGGAGUGGGACCCACCAUUUGUGGGGAAAGUAGCAUUCCUCCACCUCAG | 4.74 |
| CACCGCUCCCUUGGACGGGCUGCGACCCGCCAUCCUGGGGGUCAACACAGGAGGACAGAAGAGAGUGGAGCACAGGACCAUAGGGGUUCCAGAAAACUGUCACAGAGCAC | 0.343 |
| AAACUCAACUUCCUAACUGUGUUAACUUAAUUUUAUUAGAACACUACAGUUGAGUGAGAACGUGCAGAAGAUGUCAACAGAAGAGAAUGUUGUGCUAAGAUAAUGGCCUC | 0.374 |
| UGGUUUCUGGAGACAAAUAAUUUGUUUUCAUUAUCAUUGUAUAAUCAGGUUAAUGAUUUAUUUUUUGACUAAAUGUGCAAUUUCUUAUCACUAGAUAACUUUCAGUAUCA | 0.373 |
| GCAGGAAGUGGGAGGAUCUAAAAAUAGUUUUGAGAUUGUCUUUAAAAAUAAUAAAGAGUAGUUUCUUAUACUUGGUAUCAUUUUCAGUAUUUUCACAUCUCUGUACUGAA | 0.559 |
| GCUGAAGAUUUUGGAGCCUAUCCAUGGUUCAGGGCAGUAGAACUGGCUUCCUCUAUGGAUGCUUCCAGCGGACAACCACCAUCUCUGUGUCUCUCUCAUUCUCUCUUCAC | 0.524 |

Sample 3 — target: CCNE1, cyclin fold, Cln2 fusion (human); method: yeast growth competition, sequencing; medium: yeast; setting: strong parent motif; relative to: not given; direction: higher = stronger binding
Parent: E2F1 docking peptide (human); PPVKRRLDFETDH; partner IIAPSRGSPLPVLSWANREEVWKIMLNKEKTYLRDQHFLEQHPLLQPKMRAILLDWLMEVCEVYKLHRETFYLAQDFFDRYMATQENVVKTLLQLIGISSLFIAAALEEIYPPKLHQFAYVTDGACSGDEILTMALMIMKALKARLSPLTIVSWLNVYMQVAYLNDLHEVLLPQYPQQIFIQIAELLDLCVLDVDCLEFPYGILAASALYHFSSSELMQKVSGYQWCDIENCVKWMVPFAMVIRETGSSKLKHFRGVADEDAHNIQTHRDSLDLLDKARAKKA
| Variant | normalised enrichment score |
| --- | --- |
| PPVKRWLDFETDH [R6W] | 4.49 |
| PPVKRRVDFETDH [L7V] | 1.29 |
| PPVKRVLDFETDH [R6V] | 6.39 |
| PPVKRRLDFEDDH [T11D] | 6.09 |
| PPVKRRLDFETRH [D12R] | 6.39 |
| PPVKRRLMFETDH [D8M] | 6.4 |
| PPVKRRWDFETDH [L7W] | 0.244 |
| PPVKRRLDFESDH [T11S] | 6 |
| PPVKRTLDFETDH [R6T] | 4.39 |
| PPVWRRLDFETDH [K4W] | 2.41 |
| PHVKRRLDFETDH [P2H] | 6.66 |
| PPVLRRLDFETDH [K4L] | 2.5 |
| PPVKRRLDQETDH [F9Q] | 0.819 |
| PPVKRRIDFETDH [L7I] | 4.45 |
| PPVKRRLRFETDH [D8R] | 5.77 |
| PPCKRRLDFETDH [V3C] | 4.85 |
| PPVARRLDFETDH [K4A] | 4.92 |
| PPVKRRLDFNTDH [E10N] | 6.64 |
| PPVKVRLDFETDH [R5V] | 0.758 |

Mixed results
| Substance | target | test | test system | setting | how to read | endpoint | result |
| --- | --- | --- | --- | --- | --- | --- | --- |
| PhoQ, residues 284 288 289 292 302 303 TVTVVA | PhoP, residues 12 14 15 18 19 NQFFI (Escherichia coli, UniProt P23836) | Sort-seq, measured: YFP reporter | E. coli | PhoQ-PhoP variant library, with: 10 µM Mg2+ | relative to: high Mg2+ state, higher = stronger signaling | fold induction | 10.2 |
